Published values collected from several papers.
Each numbered part is a random draw from the data of one study; scales do not carry over between parts.
Chain of UniProt O75676 (whole entry, looked up): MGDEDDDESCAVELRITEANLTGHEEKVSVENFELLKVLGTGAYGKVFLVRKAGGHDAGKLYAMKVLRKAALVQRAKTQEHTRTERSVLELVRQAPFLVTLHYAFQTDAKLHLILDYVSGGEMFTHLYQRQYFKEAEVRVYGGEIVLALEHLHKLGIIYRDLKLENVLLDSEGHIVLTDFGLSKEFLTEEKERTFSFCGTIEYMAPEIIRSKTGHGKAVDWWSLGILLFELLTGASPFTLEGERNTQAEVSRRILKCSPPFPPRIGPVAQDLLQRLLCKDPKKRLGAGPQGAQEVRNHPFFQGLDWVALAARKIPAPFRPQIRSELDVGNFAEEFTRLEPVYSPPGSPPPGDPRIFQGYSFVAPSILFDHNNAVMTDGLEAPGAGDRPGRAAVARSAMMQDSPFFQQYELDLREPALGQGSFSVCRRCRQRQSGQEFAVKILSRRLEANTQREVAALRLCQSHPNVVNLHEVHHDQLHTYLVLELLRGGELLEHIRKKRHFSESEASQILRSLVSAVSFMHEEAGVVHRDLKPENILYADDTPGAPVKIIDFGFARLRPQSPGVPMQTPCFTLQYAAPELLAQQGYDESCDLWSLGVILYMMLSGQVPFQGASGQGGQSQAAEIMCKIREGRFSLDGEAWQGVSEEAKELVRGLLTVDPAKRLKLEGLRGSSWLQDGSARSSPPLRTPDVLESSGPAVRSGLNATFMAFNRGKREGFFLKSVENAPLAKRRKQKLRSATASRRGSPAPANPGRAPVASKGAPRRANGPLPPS
Chain of UniProt Q02750 (whole entry, looked up): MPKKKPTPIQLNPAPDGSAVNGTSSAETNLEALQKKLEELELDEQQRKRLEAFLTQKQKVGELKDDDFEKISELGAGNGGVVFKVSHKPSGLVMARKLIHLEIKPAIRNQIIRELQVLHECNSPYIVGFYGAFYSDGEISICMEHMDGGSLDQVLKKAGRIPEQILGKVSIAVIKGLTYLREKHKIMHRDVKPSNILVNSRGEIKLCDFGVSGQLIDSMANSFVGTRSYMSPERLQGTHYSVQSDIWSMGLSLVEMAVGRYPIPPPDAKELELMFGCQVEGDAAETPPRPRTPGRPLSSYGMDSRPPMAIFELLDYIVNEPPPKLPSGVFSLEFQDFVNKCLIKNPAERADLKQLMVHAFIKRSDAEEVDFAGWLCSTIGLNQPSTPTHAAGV
Chain of UniProt O75914 (whole entry, looked up): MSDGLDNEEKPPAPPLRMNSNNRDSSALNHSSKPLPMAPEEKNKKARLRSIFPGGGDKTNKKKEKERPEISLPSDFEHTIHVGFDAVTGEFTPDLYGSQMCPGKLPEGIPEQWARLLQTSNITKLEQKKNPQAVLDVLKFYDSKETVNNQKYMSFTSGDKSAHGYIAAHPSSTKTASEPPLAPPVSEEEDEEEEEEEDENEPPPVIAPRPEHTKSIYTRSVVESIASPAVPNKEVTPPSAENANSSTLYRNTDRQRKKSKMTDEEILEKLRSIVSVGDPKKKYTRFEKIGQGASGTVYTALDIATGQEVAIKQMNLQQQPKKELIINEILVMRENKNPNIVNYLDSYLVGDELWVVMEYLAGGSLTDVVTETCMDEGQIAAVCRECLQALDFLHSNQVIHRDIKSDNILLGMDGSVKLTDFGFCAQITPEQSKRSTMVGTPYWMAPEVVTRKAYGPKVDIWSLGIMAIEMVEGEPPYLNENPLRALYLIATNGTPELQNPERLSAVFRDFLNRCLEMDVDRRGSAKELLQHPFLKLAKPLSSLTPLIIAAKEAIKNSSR
Chain of UniProt Q15303 (whole entry, looked up): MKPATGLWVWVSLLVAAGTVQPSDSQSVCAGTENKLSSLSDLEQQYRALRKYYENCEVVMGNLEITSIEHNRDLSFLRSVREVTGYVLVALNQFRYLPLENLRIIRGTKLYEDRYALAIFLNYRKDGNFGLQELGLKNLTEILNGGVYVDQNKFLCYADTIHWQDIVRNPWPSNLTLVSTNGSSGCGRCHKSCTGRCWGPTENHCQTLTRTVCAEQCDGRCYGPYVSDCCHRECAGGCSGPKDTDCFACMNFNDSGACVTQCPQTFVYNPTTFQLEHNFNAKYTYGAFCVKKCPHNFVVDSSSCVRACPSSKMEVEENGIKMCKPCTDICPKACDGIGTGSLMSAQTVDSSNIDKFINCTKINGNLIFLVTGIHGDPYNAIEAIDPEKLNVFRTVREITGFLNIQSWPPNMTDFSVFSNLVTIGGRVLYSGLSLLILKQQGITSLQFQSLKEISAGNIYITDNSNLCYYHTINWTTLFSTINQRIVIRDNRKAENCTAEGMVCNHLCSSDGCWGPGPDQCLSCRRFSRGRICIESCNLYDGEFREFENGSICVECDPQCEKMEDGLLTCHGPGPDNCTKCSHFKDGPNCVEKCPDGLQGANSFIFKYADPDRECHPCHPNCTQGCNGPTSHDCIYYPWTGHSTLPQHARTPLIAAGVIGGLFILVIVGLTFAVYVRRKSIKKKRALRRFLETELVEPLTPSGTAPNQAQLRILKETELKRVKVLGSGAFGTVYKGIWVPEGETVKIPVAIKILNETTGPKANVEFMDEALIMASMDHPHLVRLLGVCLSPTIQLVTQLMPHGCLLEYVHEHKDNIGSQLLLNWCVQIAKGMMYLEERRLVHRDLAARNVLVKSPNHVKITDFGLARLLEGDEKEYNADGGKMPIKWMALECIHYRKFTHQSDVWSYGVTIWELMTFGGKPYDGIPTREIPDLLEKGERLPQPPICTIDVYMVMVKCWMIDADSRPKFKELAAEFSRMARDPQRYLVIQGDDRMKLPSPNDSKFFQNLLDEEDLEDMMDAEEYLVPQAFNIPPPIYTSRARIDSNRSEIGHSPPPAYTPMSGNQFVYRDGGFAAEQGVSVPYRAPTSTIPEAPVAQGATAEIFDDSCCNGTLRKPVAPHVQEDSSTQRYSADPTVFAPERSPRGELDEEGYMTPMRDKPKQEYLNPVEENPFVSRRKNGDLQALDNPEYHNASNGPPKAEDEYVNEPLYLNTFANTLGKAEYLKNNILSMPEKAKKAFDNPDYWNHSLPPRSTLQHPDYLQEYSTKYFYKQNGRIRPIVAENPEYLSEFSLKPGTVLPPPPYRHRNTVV
Chain of UniProt P49841 (whole entry, looked up): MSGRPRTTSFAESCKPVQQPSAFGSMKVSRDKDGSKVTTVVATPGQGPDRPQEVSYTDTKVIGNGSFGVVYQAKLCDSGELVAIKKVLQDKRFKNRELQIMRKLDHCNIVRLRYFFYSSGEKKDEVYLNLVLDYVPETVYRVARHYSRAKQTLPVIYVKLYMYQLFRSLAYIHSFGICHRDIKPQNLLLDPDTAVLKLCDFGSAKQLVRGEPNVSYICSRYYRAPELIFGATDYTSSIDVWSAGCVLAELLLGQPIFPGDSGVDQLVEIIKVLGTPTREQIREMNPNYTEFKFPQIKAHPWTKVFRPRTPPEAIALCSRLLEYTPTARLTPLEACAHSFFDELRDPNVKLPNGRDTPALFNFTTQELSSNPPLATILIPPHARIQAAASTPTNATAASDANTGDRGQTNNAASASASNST
Chain of UniProt O94806 (whole entry, looked up): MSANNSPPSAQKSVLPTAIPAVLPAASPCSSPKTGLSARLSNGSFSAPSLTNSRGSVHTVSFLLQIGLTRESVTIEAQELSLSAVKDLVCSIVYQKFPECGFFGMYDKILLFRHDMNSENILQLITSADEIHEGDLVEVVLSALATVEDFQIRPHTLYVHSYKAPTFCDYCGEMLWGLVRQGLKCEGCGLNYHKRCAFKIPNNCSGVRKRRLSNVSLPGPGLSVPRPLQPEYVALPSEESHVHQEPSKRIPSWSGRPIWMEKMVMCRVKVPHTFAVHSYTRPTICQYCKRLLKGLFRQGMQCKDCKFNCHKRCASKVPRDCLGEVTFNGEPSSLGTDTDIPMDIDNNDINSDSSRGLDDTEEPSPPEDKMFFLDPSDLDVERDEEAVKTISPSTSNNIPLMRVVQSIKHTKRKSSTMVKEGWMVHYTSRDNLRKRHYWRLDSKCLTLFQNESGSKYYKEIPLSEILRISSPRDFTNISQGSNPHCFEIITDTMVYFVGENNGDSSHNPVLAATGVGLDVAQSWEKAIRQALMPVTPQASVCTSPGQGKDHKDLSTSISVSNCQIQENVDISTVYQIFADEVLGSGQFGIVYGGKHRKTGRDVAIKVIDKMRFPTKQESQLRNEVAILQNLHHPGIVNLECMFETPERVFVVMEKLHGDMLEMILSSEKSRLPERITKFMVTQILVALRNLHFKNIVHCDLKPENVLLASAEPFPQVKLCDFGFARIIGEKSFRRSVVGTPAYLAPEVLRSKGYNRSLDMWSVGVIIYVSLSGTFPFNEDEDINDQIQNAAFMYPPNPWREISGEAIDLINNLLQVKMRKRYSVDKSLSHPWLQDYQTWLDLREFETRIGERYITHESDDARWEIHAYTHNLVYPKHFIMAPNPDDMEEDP

Study 1
Cell line: HaCaT
Tested at: 100 µM
Time: 18 h
Compound | viability [%]
CCCCCNC(=N)N/N=C/c1c[nH]c2ccc(OC)cc12 | 18.3
CC1=C(/C=C/C(C)=C/C=C/C(C)=C/C=C/C=C(C)/C=C/C=C(C)/C=C/C2=C(C)C(=O)[C@@H](O)CC2(C)C)C(C)(C)C[C@H](O)C1=O | 97.1
O=C(O)c1cccnc1Nc1cccc(C(F)(F)F)c1 | 88
NC[C@@H]1O[C@H](O[C@H]2[C@@H](O)[C@H](O[C@@H]3[C@@H](O)[C@H](N)C[C@H](N)[C@H]3O[C@H]3O[C@H](CO)[C@@H](O)[C@H](O)[C@H]3N)O[C@@H]2CO)[C@H](N)[C@@H](O)[C@@H]1O | 111
c1ccc(-c2ccc(C(c3ccccc3)n3ccnc3)cc2)cc1 (centres unmarked) | 26.1

Study 2
Species: mouse
Medium: microsomes or S9
Tested at: 2 µM
Time: 0.5 h
Compound | remaining compound
CCOC(=O)c1c(NC(=O)c2cc(OC)c(OC)c(OC)c2)sc(C)c1-c1ccc(OC)c(OC)c1 | < 1%
COc1ccc(CNC(=O)CCc2nnc3ccc(-c4ccc(Cl)cc4)nn23)c(OC)c1 | 0.529%
CN(Cc1ccc(F)cc1)Cc1ccc([N+](=O)[O-])cc1 | 0.104%
Cc1ccc(-n2ccc3c(cnc4ccn(-n5cnnc5)c(=O)c43)c2=O)cc1C | > 99.9%
COc1ccc([N+](=O)[O-])cc1C(=O)Nc1cc(C(F)(F)F)cc(C(F)(F)F)c1 | 74.4%

Study 3
SMILES: CCN1/C(=C/C(C)=O)Sc2ccc(OC)cc21
Observed: enzyme activity
Mode: inhibitor
Tested at: 0.5 µM
Reference: control
target | remaining activity [%]
Mitogen-activated protein kinase 1 (MAPK1, Homo sapiens, UniProt P28482) | 97.1
Serine/threonine-protein kinase MRCK beta (CDC42BPB, Homo sapiens, UniProt Q9Y5S2) | 114
Calcium/calmodulin-dependent protein kinase type 1B (PNCK, Homo sapiens, UniProt Q6P2M8) | 101
Serine/threonine-protein kinase DCLK2 (DCLK2, Homo sapiens, UniProt Q8N568) | 97.9
cGMP-dependent protein kinase 2 (PRKG2, Homo sapiens, UniProt Q13237) | 65.8
Hepatocyte growth factor receptor (MET, Homo sapiens, UniProt P08581) | 103
Serine/threonine-protein kinase PLK3 (PLK3, Homo sapiens, UniProt Q9H4B4) | 99.4
Mitogen-activated protein kinase 14 (MAPK14, Homo sapiens, UniProt Q16539) | 95.4
Discoidin domain-containing receptor 2 (DDR2, Homo sapiens, UniProt Q16832) | 96.6
Cyclin-dependent kinase 9, with cyclin K (CDK9, Homo sapiens, UniProt P50750) | 86.2
MAP/microtubule affinity-regulating kinase 4 (MARK4, Homo sapiens, UniProt Q96L34) | 102
Vascular endothelial growth factor receptor 2 (KDR, Homo sapiens, UniProt P35968) | 104
Serine/threonine-protein kinase Nek3 (NEK3, Homo sapiens, UniProt P51956) | 82.5
Rho-associated protein kinase 1 (ROCK1, Homo sapiens, UniProt Q13464) | 99.3
Mitogen-activated protein kinase 11 (MAPK11, Homo sapiens, UniProt Q15759) | 84.5
Tyrosine-protein kinase TXK (TXK, Homo sapiens, UniProt P42681) | 100
Ribosomal protein S6 kinase alpha-4 (RPS6KA4, Homo sapiens, UniProt O75676) | 91.8
Calcium/calmodulin-dependent protein kinase type IV (CAMK4, Homo sapiens, UniProt Q16566) | 99.9
RAC-beta serine/threonine-protein kinase (AKT2, Homo sapiens, UniProt P31751) | 95.2
Cyclin-dependent kinase 1, with cyclin A (CDK1, Homo sapiens, UniProt P06493) | 97.5
G protein-coupled receptor kinase 4 (GRK4, Homo sapiens, UniProt P32298) | 96.2
Serine/threonine-protein kinase MARK2 (MARK2, Homo sapiens, UniProt Q7KZI7) | 89.5
Dual specificity mitogen-activated protein kinase kinase 1 (MAP2K1, Homo sapiens, UniProt Q02750) | 98.7
Serine/threonine-protein kinase PAK 3 (PAK3, Homo sapiens, UniProt O75914) | 96.3

Study 4
Structure (SMILES): O=C1CCc2cc(Nc3cc(OC4CCOCC4)c([N+](=O)[O-])cc3Cl)ccc2N1
Observed: cell-free assay
Method: competition with immobilised ligand
Tested at: 1 µM
target | remaining binding [%]
Serine/threonine-protein kinase Nek5 (NEK5, Homo sapiens, UniProt Q6P3R8) | 96
Maternal embryonic leucine zipper kinase (MELK, Homo sapiens, UniProt Q14680) | 77
Serine/threonine-protein kinase 16 (STK16, Homo sapiens, UniProt O75716) | 93
Serine/threonine-protein kinase D3 (PRKD3, Homo sapiens, UniProt O94806) | 92
Mitogen-activated protein kinase kinase kinase 1 (MAP3K1, Homo sapiens, UniProt Q13233) | 65
Activin receptor type-1B (ACVR1B, Homo sapiens, UniProt P36896) | 93
Glycogen synthase kinase-3 beta (GSK3B, Homo sapiens, UniProt P49841) | 96
Ribosomal protein S6 kinase alpha-4, N-terminal kinase domain (RPS6KA4, Homo sapiens, UniProt O75676) | 65

Study 5
Structure (SMILES): COc1ccc2[nH]c3c4[nH]c5ccc(OC)cc5c4c4c(c3c2c1)C(=O)NC4=O
Method: competitive binding panel
Tested at: 1 µM
Reference: vehicle
target | assay | remaining binding [%]
Tyrosine-protein kinase ZAP-70 (ZAP70, Homo sapiens, UniProt P43403) | – | 76
Serine/threonine-protein kinase WNK3 (WNK3, Homo sapiens, UniProt Q9BYP7) | – | 92
eIF-2-alpha kinase GCN2 (EIF2AK4, Homo sapiens, UniProt Q9P2K8, S808G) | – | 74
Atypical kinase COQ8B, mitochondrial (COQ8B, Homo sapiens, UniProt Q96D53) | item: ADCK4 | 75
Ephrin type-A receptor 8 (EPHA8, Homo sapiens, UniProt P29322) | – | 87
Serine/threonine-protein kinase RIO3 (RIOK3, Homo sapiens, UniProt O14730) | – | 100
Receptor tyrosine-protein kinase erbB-4 (ERBB4, Homo sapiens, UniProt Q15303) | – | 59
Dual specificity tyrosine-phosphorylation-regulated kinase 1B (DYRK1B, Homo sapiens, UniProt Q9Y463) | – | 79

For quick reference, copied from above (study 3):
target | remaining activity [%]
Calcium/calmodulin-dependent protein kinase type 1B (PNCK, Homo sapiens, UniProt Q6P2M8) | 101
Serine/threonine-protein kinase DCLK2 (DCLK2, Homo sapiens, UniProt Q8N568) | 97.9
cGMP-dependent protein kinase 2 (PRKG2, Homo sapiens, UniProt Q13237) | 65.8
